Experimental data pooled from the literature.
A part holds a random share of what one study measured. Changes are numbered by the printed parent chain.

Series 1 — technique: protein binding microarray; form: double-stranded DNA, one strand shown; matrix: in vitro; tested at: not given; relative to: not given; direction: higher = stronger binding; measurement: E-score
Target: Histone acetyltransferase KAT6A, both winged helices, GST fusion (KAT6A, Homo sapiens, UniProt Q92794, residues 1-181)
Setting: 8-mer, flanks averaged, mean of 2 arrays, mostly near background
Residues (chain): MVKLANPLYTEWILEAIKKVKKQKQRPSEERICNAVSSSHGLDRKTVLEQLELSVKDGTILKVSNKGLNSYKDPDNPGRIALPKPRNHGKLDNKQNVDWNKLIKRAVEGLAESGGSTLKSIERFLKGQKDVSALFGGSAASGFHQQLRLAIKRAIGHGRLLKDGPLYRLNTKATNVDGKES
Sequence = ATTAACGG; value = 0.196
Sequence = AGTAATAT; value = -0.0143
Sequence = ATAATAAC; value = -0.0182
Sequence = GATTCTGA; value = 0.0272
Sequence = GGCCAACA; value = -0.0683
Sequence = GGCCGTAC; value = 0.255
Sequence = ATCTAACG; value = 0.0572
Sequence = TAGGATCA; value = -0.178
Sequence = ATCCACCG; value = 0.0249
Sequence = ACTAATAC; value = 0.0574
Sequence = TCCTACGA; value = -0.153
Sequence = AAGGAAAT; value = -0.196
Sequence = ACTACGAG; value = -0.111
Sequence = CTCCGTGC; value = 0.162
Sequence = GATGGGAA; value = -0.132
Sequence = TAAAATCA; value = -0.101
Sequence = AAATCATG; value = -0.172
Sequence = ACGGGGAC; value = 0.151
Sequence = GCCCATAC; value = -0.102
Sequence = AGTAATCC; value = -0.137
Sequence = AATCAAGA; value = -0.0402
Sequence = CTTGTGCA; value = -0.154

Series 2 — technique: RNA Bind-n-Seq; form: RNA; matrix: in vitro; tested at: 200 nM; setting: whole 134-nt RNA, ends assumed; together with: 150 mM LiCl; relative to: input library; direction: higher = stronger binding; measurement: log2 enrichment; each molecule: 7-deaza-guanosine replaces G
Target: Ras GTPase-activating protein-binding protein 1, full length (G3BP1, Homo sapiens, UniProt Q13283)
Chain of UniProt Q13283 (whole entry, looked up): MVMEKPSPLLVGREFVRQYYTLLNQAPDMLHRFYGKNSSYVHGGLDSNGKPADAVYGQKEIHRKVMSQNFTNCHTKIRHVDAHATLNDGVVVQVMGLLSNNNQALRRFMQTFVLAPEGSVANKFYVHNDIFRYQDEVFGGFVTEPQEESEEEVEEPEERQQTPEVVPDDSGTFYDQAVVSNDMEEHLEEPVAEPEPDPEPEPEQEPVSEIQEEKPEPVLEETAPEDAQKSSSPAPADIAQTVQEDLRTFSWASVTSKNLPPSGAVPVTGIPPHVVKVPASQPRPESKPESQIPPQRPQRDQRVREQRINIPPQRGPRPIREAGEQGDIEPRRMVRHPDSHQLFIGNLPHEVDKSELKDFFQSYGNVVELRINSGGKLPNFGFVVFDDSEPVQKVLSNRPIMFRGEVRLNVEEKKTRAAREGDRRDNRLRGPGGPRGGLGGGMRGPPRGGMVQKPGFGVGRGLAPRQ
Shared flanks, not repeated: GGGAGUUCUACAGUCCGACGAUC … UGGAAUUCUCGGGUGUCAAGG
Sequence = CUCAAGUCCUGUGCUACACAUCGUAUGUACCGAAUCGGCCGGGGCCGGCCGGGGAAAGUAUUAUGUUACGCCGUUCGGAUCUGCACUUCC; value = 0.417
Sequence = ACCAUGCAGGUGGGCAUCUUUGGGAAGUGGGGCAAGGGGGCGAUAGGGAGGGGGGUAACACUUUGGGAACAGGUGGUCCCAGGUCGUUUC; value = 0.00676
Sequence = GUCCUGUGCUACACAUCGUAUGUACCGAAUCAAAUUUUUAAACCCAAACCCCCCCAAAAAAGUAUUAUGUUACGCCGUUCGGAUCUGCAC; value = 0.726
Sequence = UGGGAGGUGGAUUUUGUUUAUUUUUUUAGCUCAUUUCCAGGGGUGGGAAUUUUUUUUUAAUAUGUCUCAUGAAUAAAGUUGUUUUUGAAA; value = -0.684
Sequence = UUUUCUUCUGGGGCAUUUAUCCGUGCUGAUCUUGGUGAAUGGGGCAUGAGUCUAACGAUCAGAGCCCCUAGUGUAGAUUACAGAAACACU; value = -0.315
Sequence = CAAGUCCUGUGCUACACAUCGUAUGUACCGAAUCGGGGAAAGGGAAAGGAAAGGGAAAGUAUUAUGUUACGCCGUUCGGAUCUGCACUUC; value = -0.261
Sequence = UCAAGUCCUGUGCUACACAUCGUAUGUACCGAAUCGGGCCGGGGCCGGGCCGGGAAAGUAUUAUGUUACGCCGUUCGGAUCUGCACUUCC; value = 0.441
Sequence = UCCUGUGCUACACAUCGUAUGUACCGAAUCGGGGUUUGGGGUUUUUUUGGGGUUUGGGGAAAGUAUUAUGUUACGCCGUUCGGAUCUGCA; value = 0.309
Sequence = UUCAUUCCCAAGGGAGGCCAUGUCUGGAGAUAGACCUUGAAUUUAAUAAAUUUUAGGCACUAUACCAUUUCAGUGGAGAAAAUUGUUGGG; value = -2.37
Sequence = UCCUGUGCUACACAUCGUAUGUACCGAAUCGGGGAAAAAGGGGUGGGGAAAAAAAGGGGAAAGUAUUAUGUUACGCCGUUCGGAUCUGCA; value = -1.67
Sequence = UAACUUUAGGGGAGGAUCUGAUGGAUAUGGCAGUGGACGUGGAUUUGGGGAUGGCUAUAAUGGGUAUGGAGGAGGACCUGGAGGUGGCAA; value = -0.153

Series 3 — technique: DHFR PCA, deep sequencing; matrix: yeast; together with: (+)-ABA 17 µM; relative to: wild-type fitted maximum; direction: higher = stronger binding; measurement: relative binding score
Target: ABI1, truncated, D143A, DHFR fusion (Arabidopsis thaliana)
Setting: methotrexate growth selection, single substitutions
Starting sequence: PYL1, truncated, DHFR fusion (Arabidopsis thaliana); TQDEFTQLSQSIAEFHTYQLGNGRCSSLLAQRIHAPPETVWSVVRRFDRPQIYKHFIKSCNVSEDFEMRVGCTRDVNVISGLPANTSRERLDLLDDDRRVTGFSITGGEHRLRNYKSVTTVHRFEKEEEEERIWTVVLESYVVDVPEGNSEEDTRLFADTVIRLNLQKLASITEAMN; partner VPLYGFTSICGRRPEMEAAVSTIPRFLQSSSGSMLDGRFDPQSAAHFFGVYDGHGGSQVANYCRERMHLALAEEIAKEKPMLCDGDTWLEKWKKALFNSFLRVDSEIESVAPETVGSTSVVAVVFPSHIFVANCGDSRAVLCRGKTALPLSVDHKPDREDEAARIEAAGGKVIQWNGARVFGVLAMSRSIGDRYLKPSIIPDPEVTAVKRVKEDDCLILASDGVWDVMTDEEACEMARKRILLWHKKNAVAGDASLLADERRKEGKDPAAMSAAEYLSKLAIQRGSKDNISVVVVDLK
Substitution = V40E; value = -41.7%
Substitution = D48Y; value = 13.2%
Substitution = A170F; value = 13.4%
Substitution = F103G; value = -11%
Substitution = C60N; value = 3.45%
Substitution = R49C; value = 80.3%
Substitution = E67K; value = 82.7%
Substitution = H122V; value = 12%
Substitution = V78T; value = 55.9%
Substitution = R69V; value = 85.7%
Substitution = F15A; value = 0.438%
Substitution = P146R; value = 0.149%

Series 4 — technique: universal PBM; form: double-stranded DNA, one strand shown; matrix: in vitro; tested at: not given; direction: higher = stronger binding; measurement: E-score
Target: Sal-like protein 4, full length isoform B (SALL4, Homo sapiens, UniProt Q9UJQ4-2, residues 1-616)
Setting: 8-mer, flanks averaged, mean of replicates
Construct (chain): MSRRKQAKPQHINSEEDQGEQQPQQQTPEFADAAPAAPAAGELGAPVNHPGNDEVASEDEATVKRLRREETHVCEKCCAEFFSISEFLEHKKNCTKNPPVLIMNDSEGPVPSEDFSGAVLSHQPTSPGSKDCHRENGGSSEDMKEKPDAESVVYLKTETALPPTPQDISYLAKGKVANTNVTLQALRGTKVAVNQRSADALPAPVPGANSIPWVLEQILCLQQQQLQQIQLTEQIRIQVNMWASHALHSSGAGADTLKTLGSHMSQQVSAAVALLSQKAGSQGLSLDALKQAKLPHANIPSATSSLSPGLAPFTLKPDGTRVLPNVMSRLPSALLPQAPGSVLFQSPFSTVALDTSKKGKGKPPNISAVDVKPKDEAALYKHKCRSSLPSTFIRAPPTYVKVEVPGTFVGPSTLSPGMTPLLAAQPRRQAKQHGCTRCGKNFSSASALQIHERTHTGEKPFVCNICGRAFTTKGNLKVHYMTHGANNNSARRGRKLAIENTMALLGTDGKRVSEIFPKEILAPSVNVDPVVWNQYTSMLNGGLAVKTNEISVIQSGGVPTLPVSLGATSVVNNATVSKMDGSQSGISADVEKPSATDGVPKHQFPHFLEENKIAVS
Sequence = CAAGGTAG; value = -0.0961
Sequence = GTATTGAC; value = 0.041
Sequence = AATCTGCC; value = -0.0904
Sequence = CGCTAATC; value = -0.0643
Sequence = GTTGGGAA; value = -0.121
Sequence = ATCCAATC; value = 0.126
Sequence = GAGCTATA; value = 0.182
Sequence = GACATCGA; value = -0.0554
Sequence = GACGCCTA; value = -0.143
Sequence = TACCCAAA; value = 0.0314
Sequence = AACCAACT; value = -0.00749
Sequence = GACGGTCC; value = -0.325
Sequence = GCGGCCCC; value = -0.342
Sequence = AACCTCAC; value = -0.0848
Sequence = CCGGGGAG; value = -0.376
Sequence = AGGGGCGA; value = -0.325
Sequence = AGGTATCA; value = 0.111
Sequence = CCGTCAGG; value = -0.235

Series 5 — technique: RNA Bind-n-Seq; form: RNA; matrix: in vitro; tested at: 365 nM; relative to: no-protein control; direction: higher = stronger binding; measurement: RBNS enrichment (R)
Target: RNA binding protein fox-1 homolog 2, RRM domain, GST-SBP tag (RBFOX2, Homo sapiens, UniProt O43251-10, residues 100-194)
Setting: natural RNA segment, single round, ends assumed
Shared flanks, not repeated: GGGAGUUCUACAGUCCGACGAUC … UGGAAUUCUCGGGUGCCAA
Construct (chain): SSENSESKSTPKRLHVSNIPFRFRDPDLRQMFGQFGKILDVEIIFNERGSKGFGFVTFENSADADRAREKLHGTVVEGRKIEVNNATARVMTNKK
Sequence = CAGCACAGUAACGUGCAUACAUAUCUGCAGGGCUGGAAUGGAAGCUUUAAAGGUGGUAGUGAUUUUUAUUUUGGAAGAAUCAUGUUACCUUUUUGUUAAAUAAAAUUUGU; value = 0.563
Sequence = AGCCCUUUCCAGCACUGUUGGUCUGAUGAACAAGGUUGUUUUACCUUAUUUUCUCUUGGAACAUAUCUGAAAACCUUCCCCACAAAUAACUUGUCACACCUUUUGUUUCA; value = 0.214
Sequence = CAUCUCCAGGGCCUUGACCUCACUGGACUGUGACUGUCCUCAGGACACCUGCCCCUCCUCACCUAACGGACUGCAGGGCUGAGCAUGUGUCUGAGGUCACACUCUCUGCC; value = 0.433
Sequence = GAGUCAUUCUCAUUGAAUUAUAAAAGCCAGCAGGCUUCAAACUAGGGGACAAAGCAAAAAGUGAUGAUAGUGGUGGAGUUAAUCUUAUCAAGAGUUGUGACAACUUCCUG; value = 0.49
Sequence = GAAGGGCUCUGUCAACAUGGACCUGGACUAGGCUCUGUGCUGGCUCCCUCCCCCACUUCAUGAGAUGUGUUUGCCAUAGUAUGUGAUCCUGUAUAACAGACUGAGUCUAU; value = 0.452
Sequence = GGCUGUCUCCCUCCAGAGCCUCCCUCCGGACAAUGAGUCCCCCCUCUUGUCUCCCACCCUGAGAUUGGGCAUGGGGUGCGGUGUGGGGGGCAUGUGCUGCCUGUUGUUAU; value = 1.4
Sequence = UGUCUUCACUUUUGAUAUAUAAACAGGUAAAUAUGUUUUUUAAAAAAUACUAAAUAUAGAGAAUAUGAAACAAAAUUGGUUGCUUGUUGCCUUCUGUGUCUUCUCAAGGA; value = 1.04
Sequence = UUCAGGGAGAUGGGGGCACUAUGGUUGCCCAAGACCAUAAACCCUCUUGUAGUCAGGCAGUAUAGUGUAGCAGGGCAAUCUGUCUGACACCUAAAUGGACUUGAAAUUGA; value = 0.576
Sequence = UACUCUGAUUGGCUAGUUUGGGUUCAUUUUUACUGUAUAUUUAUAGUAAUAAAAUCAUGCAGCAAUAUUCUAUGUGUGCCUUUGUUCUGGCACAGCACUAUGUAGGCAGC; value = 0.432
Sequence = CCAGUAUAUUUUUUCAUAACUCCAGUGCUCAGACCUAGAGUAAUAAAGCUUUUCUUACAGAAAACCAUCACAGCGACAUUACCUCAUGUUUGUAUGUUUAGUUUUGUGUC; value = 0.762
Sequence = AACCUGUCCCUUUCCCUGCCAGCAAACCCCACCACCCUAAGAGAAAUUUUAGCUUAUAUAUGACGGUAUAUUUACAAAAAGAGAAAGAGAAAAUCUGGUAUUUGCAAUGA; value = 0.43
Sequence = GUGCUGAGCGGGCAAGCAAUAAAACAAAUCAUACCAAAAAGCCACAUUGCUCUCUCCUAAGCCCCAACCCCACUCCACUCCUGUGGCCAGGGGUCCAAACAGAAAAUAAC; value = 0.314

For quick reference, copied from above (series 4):
Sequence = ATCCAATC; value = 0.126
Sequence = TACCCAAA; value = 0.0314
Sequence = GAGCTATA; value = 0.182
Sequence = CAAGGTAG; value = -0.0961
Sequence = GACGCCTA; value = -0.143
Sequence = GCGGCCCC; value = -0.342
Sequence = GTATTGAC; value = 0.041
Sequence = CCGTCAGG; value = -0.235
Sequence = AATCTGCC; value = -0.0904
Sequence = GACGGTCC; value = -0.325
